Assay results collected from several papers.
Every numbered part comes from another study and shows a few of its results, in no order. Changes are numbered by the printed parent chain.
Chain of UniProt O60285 (whole entry, looked up): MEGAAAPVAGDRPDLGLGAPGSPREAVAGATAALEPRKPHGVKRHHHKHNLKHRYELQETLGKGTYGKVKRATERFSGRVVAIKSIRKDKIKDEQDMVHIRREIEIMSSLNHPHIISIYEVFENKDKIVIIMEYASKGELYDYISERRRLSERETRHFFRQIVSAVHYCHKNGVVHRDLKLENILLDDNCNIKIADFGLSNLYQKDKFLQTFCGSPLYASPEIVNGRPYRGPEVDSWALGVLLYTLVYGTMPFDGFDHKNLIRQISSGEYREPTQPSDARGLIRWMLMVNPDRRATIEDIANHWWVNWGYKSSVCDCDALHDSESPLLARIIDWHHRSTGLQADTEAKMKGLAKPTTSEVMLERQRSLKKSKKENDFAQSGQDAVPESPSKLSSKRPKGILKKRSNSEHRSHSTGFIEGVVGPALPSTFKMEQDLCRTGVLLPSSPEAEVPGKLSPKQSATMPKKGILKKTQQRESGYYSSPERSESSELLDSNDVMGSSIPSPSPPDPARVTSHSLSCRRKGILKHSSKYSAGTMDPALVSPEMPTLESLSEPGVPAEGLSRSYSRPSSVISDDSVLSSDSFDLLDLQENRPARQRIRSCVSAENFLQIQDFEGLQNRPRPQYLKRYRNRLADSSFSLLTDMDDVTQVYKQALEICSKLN

Set 1
Target: Histone acetyltransferase KAT6A, winged helix 2, GST fusion (KAT6A, Homo sapiens, UniProt Q92794, residues 85-181)
Technique: protein binding microarray
Molecule type: double-stranded DNA, one strand shown
Medium: in vitro
Concentration: not given
Setting: 8-mer, flanks averaged, mean of 2 arrays, mostly near background
Baseline: not given
Direction: higher = stronger binding
Construct (chain): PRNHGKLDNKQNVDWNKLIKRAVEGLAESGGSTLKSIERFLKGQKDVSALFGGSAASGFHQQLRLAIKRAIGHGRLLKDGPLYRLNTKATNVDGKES
Sequence | E-score
CCCGACAA | 0.254
ACGCAGTG | 0.0478
ACCACTCT | -0.164
GCCTTGCC | 0.17
CAATGGTA | -0.0519
GGACTAAA | 0.0358
ACGTCGTC | -0.0394
CGGTTCAA | -0.0182

Set 2
Target: Transcriptional repressor CTCF (CTCF, Homo sapiens, UniProt P49711, residues 1-727, full length assumed)
Technique: protein-binding microarray
Molecule type: double-stranded DNA, one strand shown
Medium: in vitro
Concentration: not given
Setting: k-mer, scored over probes, only values ≥0.25
Direction: higher = stronger binding
Target sequence (chain): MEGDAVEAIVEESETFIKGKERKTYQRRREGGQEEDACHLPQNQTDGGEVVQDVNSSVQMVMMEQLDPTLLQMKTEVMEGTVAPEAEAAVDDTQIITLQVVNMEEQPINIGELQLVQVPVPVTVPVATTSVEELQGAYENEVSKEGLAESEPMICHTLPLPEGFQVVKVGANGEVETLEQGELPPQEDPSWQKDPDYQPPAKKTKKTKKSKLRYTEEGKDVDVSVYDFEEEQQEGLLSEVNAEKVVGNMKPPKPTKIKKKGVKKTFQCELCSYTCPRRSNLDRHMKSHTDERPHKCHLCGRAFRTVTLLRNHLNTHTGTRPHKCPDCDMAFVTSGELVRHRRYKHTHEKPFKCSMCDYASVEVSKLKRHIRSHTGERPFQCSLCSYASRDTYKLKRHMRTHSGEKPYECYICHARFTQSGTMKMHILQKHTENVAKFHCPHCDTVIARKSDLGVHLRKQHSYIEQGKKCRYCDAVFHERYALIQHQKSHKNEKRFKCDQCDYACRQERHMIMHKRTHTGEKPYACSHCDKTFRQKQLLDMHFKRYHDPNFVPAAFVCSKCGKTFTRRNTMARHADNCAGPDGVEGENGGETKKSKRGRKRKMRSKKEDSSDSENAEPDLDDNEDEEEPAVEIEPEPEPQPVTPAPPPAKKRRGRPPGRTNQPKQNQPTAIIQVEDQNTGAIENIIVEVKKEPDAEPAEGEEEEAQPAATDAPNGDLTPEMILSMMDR
Sequence | E-score
AACATACG | 0.27
GAGTATTA | 0.294
TCACAAAA | 0.267
GTGTATTA | 0.327
ACCACACA | 0.278
ATTTTCCG | 0.37
AAAGCGCT | 0.276
AATTGATA | 0.306

Set 3
Target: OGT, full length, His-tagged (human)
Technique: phage display, sequencing
Medium: in vitro
Concentration: 1 µg OGT
Setting: single substitutions, 15-mer displayed peptide, unchanged parent 5.27
Baseline: input library
Direction: higher = stronger binding
Parent: peptide; GDFPVMFMPKYSIIY
Change | fold enrichment [fold]
GDFPVMFMPKYQIIY [S12Q] | 17.3
GHFPVMFMPKYSIIY [D2H] | 6.65
GDFPVMFMPKESIIY [Y11E] | 0.993
GDNPVMFMPKYSIIY [F3N] | 5.58
GDFPVMFMPKRSIIY [Y11R] | 0.895
GDFPVLFMPKYSIIY [M6L] | 16.6
GDFPVMFMDKYSIIY [P9D] | 1.57
RDFPVMFMPKYSIIY [G1R] | 4.18

Other studies, line by line
SMILES | target | test | setting | how to read | endpoint | value
CS(=O)(=O)CCNCc1ccc(-c2ccc3ncnc(Nc4ccc(OCc5cccc(F)c5)c(Cl)c4)c3c2)o1 | NUAK family SNF1-like kinase 1 (NUAK1, Homo sapiens, UniProt O60285) | enzyme activity, inhibitor | 0.5 µM | baseline: control | remaining activity | 108%

Some of these lines once more (set 1):
Sequence | E-score
GCCTTGCC | 0.17
CAATGGTA | -0.0519
GGACTAAA | 0.0358
ACGTCGTC | -0.0394
